Assay results gathered from unrelated publications.
A part holds a random share of what one study measured. Substitutions count along the parent as printed.

Block 1
Target: RNA binding protein fox-1 homolog 2, RRM domain, GST-SBP tag (RBFOX2, Homo sapiens, UniProt O43251-10, residues 100-194)
Technique: RNA Bind-n-Seq
Molecule type: RNA
Sample: in vitro
Tested at: 365 nM
Setting: natural RNA segment, single round, ends assumed
Baseline: no-protein control
Reading: higher = stronger binding
Construct (chain): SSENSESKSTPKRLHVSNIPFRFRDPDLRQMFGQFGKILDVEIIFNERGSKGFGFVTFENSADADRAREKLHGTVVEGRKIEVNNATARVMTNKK
Oligonucleotide	RBNS enrichment (R)
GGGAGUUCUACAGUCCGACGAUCGUUUUCAUAAUCGAAAGAAACGGGUAUCCAAAUAAAACCAAGUUCUUGACAUUGGUCUGUUUUGCUGUGAAUAUUGGAAAUGCUUAGGAUCUUCAGACCCAAUAGCUCUAUGGAAUUCUCGGGUGCCAA	0.281
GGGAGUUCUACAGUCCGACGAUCUCCACAACUACUGCCAUACCCUGUGUUGUAUCAUUUGACCAGGAGGGAAACCUUGAAUUGGGGUGUGUUCUCUAAUCACUUUCCACUGUCUGAGCUUUCCUGACCCCUGUUGGAAUUCUCGGGUGCCAA	0.358
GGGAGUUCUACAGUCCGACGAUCUGUCUCUCUAGAAGAGCUUAUGCAAGCUUGGGGAUCUAGAUGAUUAAAUCCUUCAGGGGCGGGGACCGCCUUGCUCGGGAAGGAAGGUGCCAUGGCCUGCACCGUGGCGGUGGAAUUCUCGGGUGCCAA	0.273
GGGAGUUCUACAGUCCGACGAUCCAUUUGUUCAUCAAGAUCAAUAGAAUCUUACCAGUGGGUAGGAAAGGAUCAUAUAAAAUAUGAAGAAAUAGCCAUAUUAAAUUUUUUGCUGUCAUUUGCCUCCGCAACAAUGGAAUUCUCGGGUGCCAA	0.431
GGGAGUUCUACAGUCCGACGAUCCCUCCCUGGCCCCAGGCAGCCCUUUUCCCUCCAGUGGCACCUCCUGGAAACAGUCCACUUGGGCGCAAAACCCAGUGCCUUCCAAAUGAGCUGCAGUCCCCAGGCCAUGAUGGAAUUCUCGGGUGCCAA	0.543
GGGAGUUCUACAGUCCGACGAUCUGGUUCUGCAGUCUGGUGUAGACACUGGAAUAACAGCACAGAAAAAUCUAUGACUCCCAAUAUCUUCUAGAAUAAAGAAUUUUCCCUCUUUAACACAAGGGCCCUCCUUGUGGAAUUCUCGGGUGCCAA	0.353
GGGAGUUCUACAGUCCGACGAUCUCAAGCUUCAUGUAGGGUCAGGGGUGCCUAGGGAUGGCCCCAUCUGCUAUGUAAAUUAGGACUUGCCUGCCAGGUCUCAGCUGUCAGUGGAGAGUAGGUUUCAGGAAACCUGGAAUUCUCGGGUGCCAA	0.637
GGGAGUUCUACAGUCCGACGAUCAAUUCCAAAAUCUCGAGGAAGCUAGAAAACACAAUCCUGUGGCAGUAAGACAUUCUCCAGUGUUCAGCUUUAGGGAUUUUCUAUUUGGCAGCCAUAGGCAAUGCUUAUUUUGGAAUUCUCGGGUGCCAA	0.283

Block 2
Target: Histone acetyltransferase KAT6A, winged helix 1, GST fusion (KAT6A, Homo sapiens, UniProt Q92794, residues 1-85)
Technique: protein binding microarray
Molecule type: double-stranded DNA, one strand shown
Sample: in vitro
Tested at: not given
Setting: 8-mer, flanks averaged, mean of 2 arrays, mostly near background
Baseline: not given
Reading: higher = stronger binding
Target sequence (chain): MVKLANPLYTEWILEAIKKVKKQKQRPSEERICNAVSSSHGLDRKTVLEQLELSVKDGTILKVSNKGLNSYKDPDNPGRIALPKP
Oligonucleotide	E-score
CCCCGAGA	-0.0347
CGCTCACA	0.243
CATCCTGA	-0.149
TACCAGAA	-0.0809
GTTGCCAA	-0.176
CGGTCGCC	0.257
AAGAGGTG	-0.104
AGGGAGTC	-0.216
GAAGCTAC	-0.0561
CGGCAACA	0.231
GAATTATC	-0.154
CCCCTCTA	-0.22
AAGTGTAC	-0.0443
CTAGGAGA	-0.169
AGGGAATG	-0.104
GCGCCCGA	0.405
CCCATCAC	-0.195
AACGCGTC	0.338
CATATGAA	-0.1
CCCGACAC	0.0847
ACTTTGTG	-0.0849
CGCACCCA	0.0915
CAAACTTC	-0.0859
CCGCTCTA	0.191
AATCGAAT	-0.019

Block 3
Target: ABI1, truncated, D143A, DHFR fusion (Arabidopsis thaliana)
Technique: DHFR PCA, deep sequencing
Sample: yeast
Setting: methotrexate growth selection, single substitutions
Together with: (+)-ABA 17 µM
Baseline: wild-type fitted maximum
Reading: higher = stronger binding
Parent: PYL1, truncated, DHFR fusion (Arabidopsis thaliana); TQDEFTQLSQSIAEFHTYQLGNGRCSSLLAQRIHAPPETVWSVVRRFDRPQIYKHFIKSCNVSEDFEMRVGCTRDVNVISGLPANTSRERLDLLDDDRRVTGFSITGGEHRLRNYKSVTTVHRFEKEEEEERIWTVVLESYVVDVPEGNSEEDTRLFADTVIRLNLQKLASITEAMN; partner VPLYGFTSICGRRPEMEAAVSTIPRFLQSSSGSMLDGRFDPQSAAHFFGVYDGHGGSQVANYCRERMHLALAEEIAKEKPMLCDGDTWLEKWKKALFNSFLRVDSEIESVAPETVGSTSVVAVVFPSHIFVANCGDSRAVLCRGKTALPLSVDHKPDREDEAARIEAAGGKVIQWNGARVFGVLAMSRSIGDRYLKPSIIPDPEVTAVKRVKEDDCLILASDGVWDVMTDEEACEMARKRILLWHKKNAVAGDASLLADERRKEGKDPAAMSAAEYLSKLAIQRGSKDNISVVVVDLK
Change	relative binding score [%]
E147P	88.5
S104H	13.8
R69S	77.2
Y53N	3.32
F47E	-4.88
R46L	48.7
L28S	16
R88D	22.6
L138K	-12.8
T101W	-0.162
V100D	-4.13
V142L	50
I105F	-8.92
L169M	21.9
W41K	-30.4

Block 4
Target: Prothrombin, mature alpha-thrombin (F2, Homo sapiens, UniProt P00734)
Technique: aptamer microarray, sandwich
Molecule type: DNA with 2'F-ANA
Sample: in vitro
Tested at: 200 nM
Setting: whole 15-mer aptamer, many near background
Together with: Cy3 exosite-II aptamer, 400 nM
Reading: higher = stronger binding
Oligonucleotide: GGTTGGTGTGGTTGG
Modification	mean fluorescence intensity [a.u.]
2'F-ANA at 3 7 9 12 13 14 15	615
2'F-ANA at 4 5 6 9 11 12 13 14 15	51.9
2'F-ANA at 3 6 8 9 10 12 13	457
2'F-ANA at 1 5 6 9 12	226
2'F-ANA at 1 3 7 13	304
2'F-ANA at 2 3 6 7 10 11 13 14	238
2'F-ANA at 1 3 4 5 6 7 8 9 10	49.3
2'F-ANA at 1 2 8 10 13 14	75.4
2'F-ANA at 2 7 9 10 13 14 15	84.1
2'F-ANA at 1 2 3 5 11 13	70.3
2'F-ANA at 7 8 11 13 15	541
2'F-ANA at 2 3 6 9 12 14 15	362
2'F-ANA at 4 11 12 14	132
2'F-ANA at 1 3 6 7 8 11	296
2'F-ANA at 1 2 5 7 10 12 13 14 15	49.7
2'F-ANA at 1 2 6 7 8 10 12 13 14	51.9
2'F-ANA at 2 3 5 6 8 9 12	239
2'F-ANA at 1 2 4 10 11 13 14	44.4
2'F-ANA at 1 10 11 12 13	67.1
2'F-ANA at 1 2 5 6 8 9 12 13 14 15	49
2'F-ANA at 5 7 9 10 14 15	44.5
2'F-ANA at 2 3 6 7 9 10 11 15	262

A few entries again (block 4):
Modification	mean fluorescence intensity [a.u.]
2'F-ANA at 3 7 9 12 13 14 15	615
2'F-ANA at 4 5 6 9 11 12 13 14 15	51.9
2'F-ANA at 3 6 8 9 10 12 13	457
2'F-ANA at 1 5 6 9 12	226
2'F-ANA at 1 3 7 13	304
2'F-ANA at 2 3 6 7 10 11 13 14	238
